Measurements from different studies.
Every numbered part comes from another study and shows a few of its results, in no order.
Chain of UniProt Q9UJQ4 (whole entry, looked up): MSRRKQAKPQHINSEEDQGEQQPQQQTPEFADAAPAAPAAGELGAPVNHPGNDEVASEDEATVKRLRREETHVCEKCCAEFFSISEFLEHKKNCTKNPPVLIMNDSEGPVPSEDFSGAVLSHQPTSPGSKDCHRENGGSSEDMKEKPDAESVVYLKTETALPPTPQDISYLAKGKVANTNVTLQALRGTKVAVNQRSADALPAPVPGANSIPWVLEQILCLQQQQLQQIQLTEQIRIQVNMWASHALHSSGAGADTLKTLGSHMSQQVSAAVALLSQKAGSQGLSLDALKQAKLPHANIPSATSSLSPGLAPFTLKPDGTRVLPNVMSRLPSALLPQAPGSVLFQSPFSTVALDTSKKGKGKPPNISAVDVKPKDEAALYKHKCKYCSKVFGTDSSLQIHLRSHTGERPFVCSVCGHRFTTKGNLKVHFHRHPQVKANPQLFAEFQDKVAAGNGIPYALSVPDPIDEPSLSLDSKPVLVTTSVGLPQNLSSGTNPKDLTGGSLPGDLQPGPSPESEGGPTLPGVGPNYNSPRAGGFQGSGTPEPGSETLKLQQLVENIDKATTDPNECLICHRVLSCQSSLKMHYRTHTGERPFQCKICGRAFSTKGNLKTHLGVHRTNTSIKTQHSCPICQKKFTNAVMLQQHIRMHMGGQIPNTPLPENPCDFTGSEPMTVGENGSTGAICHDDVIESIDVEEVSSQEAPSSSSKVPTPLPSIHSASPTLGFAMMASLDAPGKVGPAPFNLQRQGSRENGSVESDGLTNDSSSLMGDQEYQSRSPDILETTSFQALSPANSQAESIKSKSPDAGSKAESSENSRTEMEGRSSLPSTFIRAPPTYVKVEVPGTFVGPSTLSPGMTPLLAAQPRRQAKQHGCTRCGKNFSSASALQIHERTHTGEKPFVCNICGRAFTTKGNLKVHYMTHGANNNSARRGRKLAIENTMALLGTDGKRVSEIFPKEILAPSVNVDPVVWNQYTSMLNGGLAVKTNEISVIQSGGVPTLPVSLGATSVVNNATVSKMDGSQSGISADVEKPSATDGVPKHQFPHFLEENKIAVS

Sample 1
Target: RNA binding protein fox-1 homolog 2, RRM domain, GST-SBP tag (RBFOX2, Homo sapiens, UniProt O43251-10, residues 100-194)
Method: RNA Bind-n-Seq
Form: RNA
Matrix: in vitro
Tested at: 365 nM
Notes: natural RNA segment, single round, ends assumed
Reference: no-protein control
Direction: higher = stronger binding
| Oligonucleotide | RBNS enrichment (R) |
| --- | --- |
| GGGAGUUCUACAGUCCGACGAUCGAGAUGGUAAUAUGACUCUCCAUAUUUUGGUACCAAUUCUGAGACUGUAUGAAUUUUCAGGUGGAACUUUAGCACACACUGAAGCAAAGUUGUGAAGUGCAGGGCGGGAGUGGAAUUCUCGGGUGCCAA | 0.483 |
| GGGAGUUCUACAGUCCGACGAUCCAUGGCCCCACUUGUAUCCAGAAGUUCCCAGGGGUGAUUGUGAUGGUGGUUGGGACUGGAGGUUGUAUAAGGUGUUCUUGGAAGGAAGGGGCAGGAGUUGGAAUUAGUUGUGGAAUUCUCGGGUGCCAA | 4.08 |
| GGGAGUUCUACAGUCCGACGAUCAUCAGCCCCAUUCUCCCAUUCUUUAAGAACAAUGAUUUUUCUUGAUGGAAAAUGCAUAUCACUUGACAGUUGACAAGAAAGUGUCAUUUUUGUGUUAGUGUAUCAUAUAAUGGAAUUCUCGGGUGCCAA | 0.481 |

Sample 2
Target: Histone acetyltransferase KAT6A, winged helix 2, GST fusion (KAT6A, Homo sapiens, UniProt Q92794, residues 85-181)
Method: protein binding microarray
Form: double-stranded DNA, one strand shown
Matrix: in vitro
Tested at: not given
Notes: 8-mer, flanks averaged, mean of 2 arrays, mostly near background
Reference: not given
Direction: higher = stronger binding
Construct (chain): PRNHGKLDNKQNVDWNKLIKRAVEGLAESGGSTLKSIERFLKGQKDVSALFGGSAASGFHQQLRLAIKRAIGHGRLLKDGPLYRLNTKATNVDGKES
| Oligonucleotide | E-score |
| --- | --- |
| ACAACAGT | -0.0573 |
| GTACACGA | 0.0176 |
| TCGTGAAA | 0.045 |

Further values, each from its own experiment
| Substance | target | test | test system | conditions | how to read | endpoint | value |
| --- | --- | --- | --- | --- | --- | --- | --- |
| GATAATCA | Sal-like protein 4, full length isoform A (SALL4, Homo sapiens, UniProt Q9UJQ4, residues 1-1053) | universal PBM | double-stranded DNA, one strand shown, in vitro | 600 nM, 8-mer, flanks averaged, mean of replicates | higher = stronger binding | E-score | 0.19 |
| PhoQ, residues 284 288 289 292 302 303 SLANKL | PhoP, residues 12 14 15 18 19 TTLRV (Escherichia coli, UniProt P23836) | Sort-seq, refers to: YFP reporter | E. coli | PhoQ-PhoP variant library, added: 10 µM Mg2+ | reference: high Mg2+ state, higher = stronger signaling | fold induction | 20.4 |
